Experimental data pooled from the literature.
Protocols differ between the studies behind these lines. No end group written: not given here.
B1: MPLKIP (Homo sapiens, UniProt Q8TAP9); sequence looked up; chain MQRQNFRPPTPPYPGPGGGGWGSGSSFRGTPGGGGPRPPSPRDGYGSPHHTPPYGPRSRPYGSSHSPRHGGSFPGGRFGSPSPGGYPGSYSRSPAGSQQQFGYSPGQQQTHPQGSPRTSTPFGSGRVREKRMSNELENYFKPSMLEDPWAGLEPVSVVDISQQYSNTQTFTGKKGRYFC
B2: TNS3 SH2 domain, GST fusion 1172-1282 (Homo sapiens, UniProt Q68CZ2); tyrosine phosphorylated; sequence looked up; chain WYKADISREQAIAMLKDKEPGSFIVRDSHSFRGAYGLAMKVATPPPSVLQLNKKAGDLANELVRHFLIECTPKGVRLKGCSNEPYFGSLTALVCQHSITPLALPCKLLIPE
B3: AXIN1 745-826 Y760D (Homo sapiens, UniProt O15169-2); sequence looked up; chain DSIVVAYYFCGEPIPDRTLVRGRAVTLGQFKELLTKKGSYRYYFKKVSDEFDCGVVFEEVREDEAVLPVFEEKIIGKVEKVD
B4: CCS1 1-74 C17S/C20S (Saccharomyces cerevisiae, UniProt P40202); sequence looked up; chain MTTNDTYEATYAIPMHSENSVNDIKACLKNVPGINSLNFDIEQQIMSVESSVAPSTIINTLRNCGKDAIIRGAG
B5: KIN28/CCL1/TFB3 (yeast); chain 1 MKVNMEYTKEKKVGEGTYAVVYLGCQHSTGRKIAIKEIKTSEFKDGLDMSAIREVKYLQEMQHPNVIELIDIFMAYDNLNLVLEFLPTDLEVVIKDKSILFTPADIKAWMLMTLRGVYHCHRNFILHRDLKPNNLLFSPDGQIKVADFGLARAIPAPHEILTSNVVTRWYRAPELLFGAKHYTSAIDIWSVGVIFAELMLRIPYLPGQNDVDQMEVTFRALGTPTDRDWPEVSSFMTYNKLQIYPPPSRDELRKRFIAASEYALDFMCGMLTMNPQKRWTAVQCLESDYFKELPPPSDPSSIKIRN; chain 2 MTDIQLNGKSTLDTPSATMSAKEKEAKLKSADENNKPPNYKRISDDDLYRHSSQYRMWSYTKDQLQEKRVDTNARAIAYIEENLLKFREAHNLTEEEIKVLEAKAIPLTMEEELDLVNFYAKKVQVIAQHLNLPTEVVATAISFFRRFFLENSVMQIDPKSIVHTTIFLACKSENYFISVDSFAQKAKSTRDSVLKFEFKLLESLKFSLLNHHPYKPLHGFFLDIQNVLYGKVDLNYMGQIYDRCKKRITAALLTDVVYFYTPPQITLATLLIEDEALVTRYLETKFPSREGSQESVPGNEKEEPQNDASTTEKNKEKSTESEEYSIDSAKLLTIIRECKSIIEDCKPPSTEEAKKIAAKNYYCQNPSTLIQKLKRKLNGEDTSSTVEKKQKT; chain 3 MLMDEYEENKDMCPICKTDRYLSPDVKFLVNPECYHRICESCVDRIFSLGPAQCPYKGCDKILRKNKFKTQIFDDVEVEKEVDIRKRVFNVFNKTIDDFNGDLVEYNKYLEEVEDIIYKLDHGIDVAKTEEKLRTYEELNKQLIMNNLERSRTEIESFEQRQKFEKEMKLKKRLLERQIEEEERMNKEWTKKEIVNRLSTTTQDINETIEGVKNTVKLKKSSARRKLEELNRVLKNNPYFNSNVNVQNSRLKDAVPFTPFNGDREAHPRFTLKGSVYNDPFIKDLEHRKEFIASGFNTNYAYERVLTEAFMGLGCVISEEL
B6: PAGE4 A18C (Homo sapiens, UniProt O60829); Alexa 555/647 on C18, C63; sequence looked up; chain MSARVRSRSRGRGDGQECPDVVAFVAPGESQQEEPPTDNQDIEPGQEREGTPPIEERKVEGDCQEMDLEKTRSERGDGSDVKEKTPPNPKHAKTKEAGDGQP
B7: gp20 N291A/M292A (bacteriophage T4, UniProt P13334); sequence looked up; chain MKFNVLSLFAPWAKMDERNFKDQEKEDLVSITAPKLDDGAREFEVSSNEAASPYNAAFQTIFGSYEPGMKTTRELIDTYRNLMNNYEVDNAVSEIVSDAIVYEDDTEVVALNLDKSKFSPKIKNMMLDEFSDVLNHLSFQRKGSDHFRRWYVDSRIFFHKIIDPKRPKEGIKELRRLDPRQVQYVREIITETEAGTKIVKGYKEYFIYDTAHESYACDGRMYEAGTKIKIPKAAVVYAHSGLVDCCGKNIIGYLHRAVKPANQLKLLEDAVVIYRITRAPDRRVWYVDTGAAPARKAAEHMQHVMNTMKNRVVYDASTGKIKNQQHNMSMTEDYWLQRRDGKAVTEVDTLPGADNTGNMEDIRWFRQALYMALRVPLSRIPQDQQGGVMFDSGTSITRDELTFAKFIRELQHKFEEVFLDPLKTNLLLKGIITEDEWNDEINNIKIEFHRDSYFAELKEAEILERRINMLTMAEPFIGKYISHRTAMKDILQMTDEEIEQEAKQIEEESKEARFQDPDQEQEDF
B8: MYBPC3 C0 domain 1-95 G5R (Homo sapiens, UniProt Q14896); sequence looked up; chain MPEPRKKPVSAFSKKPRSVEVAAGSPAVFEAETERAGVKVRWQRGGSDISASNKYGLATEGTRHTLTVREVGPADQGSYAVIAGSSKVKFDLKVI
B9: UBTF 670-746 (Homo sapiens, UniProt P17480); sequence looked up; chain TLQSKSESEEDDEEDEDDEDEDEEEEDDENGDSSEDGGDSSESSSEDESEDGDENEEDDEDEDDDEDDDEDEDNESE
B10: S100A12 (Homo sapiens, UniProt P80511); sequence looked up; chain MTKLEEHLEGIVNIFHQYSVRKGHFDTLSKGELKQLLTKELANTIKNIKDKAVIDEIFQGLDANQDEQVDFQEFISLVAIALKAAHYHTHKE
Sequence of UniProt P05653 (whole entry, unmodified, looked up): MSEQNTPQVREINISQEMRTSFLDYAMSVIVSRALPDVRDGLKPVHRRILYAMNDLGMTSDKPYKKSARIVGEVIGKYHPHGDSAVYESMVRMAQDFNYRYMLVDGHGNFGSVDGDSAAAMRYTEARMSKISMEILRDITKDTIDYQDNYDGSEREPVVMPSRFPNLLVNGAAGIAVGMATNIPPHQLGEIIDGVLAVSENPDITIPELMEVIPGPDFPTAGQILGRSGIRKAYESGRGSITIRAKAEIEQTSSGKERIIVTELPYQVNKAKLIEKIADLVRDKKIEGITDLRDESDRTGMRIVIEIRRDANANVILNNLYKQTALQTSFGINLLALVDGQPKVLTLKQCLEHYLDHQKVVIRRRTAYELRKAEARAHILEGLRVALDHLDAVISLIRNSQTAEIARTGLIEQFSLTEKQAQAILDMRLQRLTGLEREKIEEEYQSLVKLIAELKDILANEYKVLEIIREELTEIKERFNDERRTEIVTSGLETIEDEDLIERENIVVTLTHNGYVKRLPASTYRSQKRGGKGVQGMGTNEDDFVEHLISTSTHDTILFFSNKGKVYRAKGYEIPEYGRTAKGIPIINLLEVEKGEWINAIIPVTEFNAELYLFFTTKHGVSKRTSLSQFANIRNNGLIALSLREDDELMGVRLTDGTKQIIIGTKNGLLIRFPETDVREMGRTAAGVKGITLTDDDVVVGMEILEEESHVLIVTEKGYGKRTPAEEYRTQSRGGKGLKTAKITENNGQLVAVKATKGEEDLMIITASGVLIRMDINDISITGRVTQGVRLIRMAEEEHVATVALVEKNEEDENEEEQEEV
Sequence of UniProt Q68Y81 (whole entry, unmodified, looked up): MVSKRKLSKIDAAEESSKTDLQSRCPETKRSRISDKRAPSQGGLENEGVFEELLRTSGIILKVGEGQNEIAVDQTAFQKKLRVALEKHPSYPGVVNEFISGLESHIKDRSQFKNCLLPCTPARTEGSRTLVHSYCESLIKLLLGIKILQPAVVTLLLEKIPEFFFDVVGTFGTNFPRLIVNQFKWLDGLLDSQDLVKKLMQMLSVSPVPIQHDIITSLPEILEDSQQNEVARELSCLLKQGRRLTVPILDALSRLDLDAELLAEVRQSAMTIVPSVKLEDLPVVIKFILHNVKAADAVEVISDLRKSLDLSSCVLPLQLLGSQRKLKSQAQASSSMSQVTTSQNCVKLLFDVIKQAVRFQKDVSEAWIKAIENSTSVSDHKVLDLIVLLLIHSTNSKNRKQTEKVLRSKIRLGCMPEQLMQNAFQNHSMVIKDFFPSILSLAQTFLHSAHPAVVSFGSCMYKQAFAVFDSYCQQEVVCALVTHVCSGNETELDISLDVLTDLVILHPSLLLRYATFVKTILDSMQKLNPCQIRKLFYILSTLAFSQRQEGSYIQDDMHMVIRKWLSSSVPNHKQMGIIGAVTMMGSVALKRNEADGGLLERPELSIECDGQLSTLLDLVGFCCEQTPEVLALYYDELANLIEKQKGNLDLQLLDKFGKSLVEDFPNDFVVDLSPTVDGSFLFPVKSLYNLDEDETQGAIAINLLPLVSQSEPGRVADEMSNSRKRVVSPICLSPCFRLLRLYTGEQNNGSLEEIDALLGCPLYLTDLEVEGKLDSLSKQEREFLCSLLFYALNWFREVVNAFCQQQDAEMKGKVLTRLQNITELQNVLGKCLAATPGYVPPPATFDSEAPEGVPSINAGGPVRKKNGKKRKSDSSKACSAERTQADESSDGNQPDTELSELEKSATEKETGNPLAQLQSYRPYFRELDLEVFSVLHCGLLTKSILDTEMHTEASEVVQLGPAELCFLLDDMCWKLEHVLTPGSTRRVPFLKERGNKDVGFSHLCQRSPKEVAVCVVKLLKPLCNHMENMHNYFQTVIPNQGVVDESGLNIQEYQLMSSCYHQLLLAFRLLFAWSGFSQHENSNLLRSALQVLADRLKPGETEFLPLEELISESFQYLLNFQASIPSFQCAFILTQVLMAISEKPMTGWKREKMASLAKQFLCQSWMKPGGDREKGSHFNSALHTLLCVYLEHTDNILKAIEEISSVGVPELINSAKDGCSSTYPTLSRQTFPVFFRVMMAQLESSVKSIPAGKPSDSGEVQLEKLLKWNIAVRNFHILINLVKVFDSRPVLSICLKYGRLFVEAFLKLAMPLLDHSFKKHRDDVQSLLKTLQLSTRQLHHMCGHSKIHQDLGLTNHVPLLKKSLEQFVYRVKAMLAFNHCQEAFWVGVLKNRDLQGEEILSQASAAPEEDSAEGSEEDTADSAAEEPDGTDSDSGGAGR
Sequence of UniProt O60656 (whole entry, looked up): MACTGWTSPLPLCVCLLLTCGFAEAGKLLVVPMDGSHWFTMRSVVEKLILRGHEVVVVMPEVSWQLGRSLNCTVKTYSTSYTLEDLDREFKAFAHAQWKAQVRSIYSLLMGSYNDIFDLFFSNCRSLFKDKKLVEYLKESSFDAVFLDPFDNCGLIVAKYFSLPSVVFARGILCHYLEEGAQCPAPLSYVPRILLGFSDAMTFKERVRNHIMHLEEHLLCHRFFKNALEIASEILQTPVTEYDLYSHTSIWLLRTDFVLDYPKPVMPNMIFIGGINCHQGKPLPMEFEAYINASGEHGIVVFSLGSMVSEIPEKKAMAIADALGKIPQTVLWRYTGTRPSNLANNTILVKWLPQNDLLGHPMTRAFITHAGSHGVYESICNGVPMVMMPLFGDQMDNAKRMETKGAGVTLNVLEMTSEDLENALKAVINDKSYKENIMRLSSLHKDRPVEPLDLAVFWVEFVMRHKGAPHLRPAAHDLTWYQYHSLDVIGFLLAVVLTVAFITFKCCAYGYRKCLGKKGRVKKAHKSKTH
Sequence of UniProt O14965 (whole entry, looked up): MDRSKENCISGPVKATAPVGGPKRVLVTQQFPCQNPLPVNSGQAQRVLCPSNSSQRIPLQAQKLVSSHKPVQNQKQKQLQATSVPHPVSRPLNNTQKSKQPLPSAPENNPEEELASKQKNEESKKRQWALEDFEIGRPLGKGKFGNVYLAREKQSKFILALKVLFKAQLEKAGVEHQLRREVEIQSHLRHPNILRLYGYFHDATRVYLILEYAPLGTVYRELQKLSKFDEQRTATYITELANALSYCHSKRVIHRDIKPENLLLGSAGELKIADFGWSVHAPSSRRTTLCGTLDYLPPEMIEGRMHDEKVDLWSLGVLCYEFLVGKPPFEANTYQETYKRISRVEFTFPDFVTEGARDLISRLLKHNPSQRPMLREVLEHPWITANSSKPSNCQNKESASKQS
Sequence of UniProt P36046 (whole entry, looked up): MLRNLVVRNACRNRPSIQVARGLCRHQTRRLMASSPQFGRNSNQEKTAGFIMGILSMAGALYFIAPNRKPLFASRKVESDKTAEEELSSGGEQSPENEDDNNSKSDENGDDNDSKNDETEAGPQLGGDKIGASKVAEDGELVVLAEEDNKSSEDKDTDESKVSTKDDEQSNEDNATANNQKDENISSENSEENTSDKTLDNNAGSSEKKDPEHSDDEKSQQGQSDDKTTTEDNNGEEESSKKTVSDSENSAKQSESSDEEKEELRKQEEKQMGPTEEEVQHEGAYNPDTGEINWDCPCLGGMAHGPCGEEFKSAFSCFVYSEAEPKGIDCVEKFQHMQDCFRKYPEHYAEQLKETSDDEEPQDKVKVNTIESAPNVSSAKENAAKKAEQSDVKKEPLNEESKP
Sequence of UniProt P32325 (whole entry, looked up): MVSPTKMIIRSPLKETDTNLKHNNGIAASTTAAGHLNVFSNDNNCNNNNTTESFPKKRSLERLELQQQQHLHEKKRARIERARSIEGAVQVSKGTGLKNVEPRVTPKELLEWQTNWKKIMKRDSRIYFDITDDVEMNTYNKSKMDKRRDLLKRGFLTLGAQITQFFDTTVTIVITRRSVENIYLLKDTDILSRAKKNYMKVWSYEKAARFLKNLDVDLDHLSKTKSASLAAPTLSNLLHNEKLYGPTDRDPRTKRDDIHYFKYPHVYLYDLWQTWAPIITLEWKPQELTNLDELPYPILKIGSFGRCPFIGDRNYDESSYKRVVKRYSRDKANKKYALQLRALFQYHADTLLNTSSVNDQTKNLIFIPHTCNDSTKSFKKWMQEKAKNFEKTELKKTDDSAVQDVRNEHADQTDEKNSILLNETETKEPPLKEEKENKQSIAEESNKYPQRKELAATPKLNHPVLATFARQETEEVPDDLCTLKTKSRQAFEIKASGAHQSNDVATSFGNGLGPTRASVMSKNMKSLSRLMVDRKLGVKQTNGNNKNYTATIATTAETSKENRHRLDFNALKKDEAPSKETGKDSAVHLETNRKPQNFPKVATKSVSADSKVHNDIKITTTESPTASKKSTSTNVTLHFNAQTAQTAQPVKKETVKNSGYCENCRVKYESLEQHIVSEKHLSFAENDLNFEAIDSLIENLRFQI

Substance	tested on	test	system	conditions	measurement	value
B1 (MPLKIP)	AQR/XAB2/ISY1/ZNF830/PPIE complex (Homo sapiens)	pull-down	–	1 hour, 4 °C	binding	binds
B2	PTK2, pY397 (Homo sapiens, UniProt Q05397)	far-Western	–	phosphorylated, in cells	binding	binds
B3 (AXIN1 745-826 Y760D)	DVL2 12-93 V67A/K68A (Homo sapiens, UniProt O14641)	crystal structure	–	–	binding	binds
B4 (CCS1 1-74 C17S/C20S)	MIA40 284-403, oxidized (UniProt P36046)	pull-down	–	10 min, pH 7.0, 25 °C, NaCl 200 mM, nonreducing	binding	binds
Ac-WKLLITIHD-{βAla-βAla-cellulose} (ITGB3 715-723 (Homo sapiens); reading uncertain; also: C-terminus attached to cellulose; N-acetyl, cellulose-bound; βAla = NCCC(=O)O; cellulose = not defined here)	Myom1 fragment (Mus musculus)	peptide array	peptide	3 h, 22 °C	binding	binds
{GST}-GGDSSESSSEDESEDGDENEEDDEDEDDDEDDDEDEDNESE (GST/UBTF 706-746; dephosphorylated; sequence looked up)	TBP/TAF1A/TAF1B/TAF1C (Homo sapiens)	pull-down	not purified SL1	with or without phosphatase	binding	binds
BACH1 BTB domain C107A, S-nitrosylation treated (Homo sapiens) (sequence not shown)	FBXL17/SKP1 FBXL17 310-701 (Homo sapiens)	BLI	–	apparent	binding	binds
B5 (KIN28/CCL1/TFB3)	SSL2/RAD3/TFB1/TFB2/SSL1/TFB4/TFB5 core TFIIH (Saccharomyces cerevisiae)	cross-linking	–	–	binding	binds
UGT1A9 (Homo sapiens, UniProt O60656)	COc1cccc(-c2oc3ccccc3c(=O)c2O)c1	steady-state kinetics	–	pH 7.4, 37 °C	Km	0.063 µM
BACH1 BTB domain C109A, S-nitrosylation treated (Homo sapiens) (sequence not shown)	FBXL17/SKP1 FBXL17 310-701 (Homo sapiens)	BLI	–	apparent	binding	binds
MSEETKENEGFTVTAEGKGQGTLSVVTMYHAKAKDQLTCNK (C3 1299-1338, C-terminal GST fusion (Homo sapiens, UniProt P01024))	ITGAX 146-332 (Homo sapiens, UniProt P20702)	ELISA	–	added: MgCl2 1 mM	binding	binds
FKH1 (Saccharomyces cerevisiae, UniProt P40466)	DBF4, phosphorylated (Saccharomyces cerevisiae, UniProt P32325)	pull-down	–	with and without phosphatase	binding	binds
UBL4A fragment (Homo sapiens) (sequence not shown)	GET4 (Homo sapiens, UniProt Q7L5D6)	pull-down	–	added: ATP 2 mM	binding	binds
HYPK fragment (Homo sapiens) (sequence not shown)	NAA15/NAA10 NAA10 1-160 (Homo sapiens)	crystal structure	–	–	binding	binds
B6 (PAGE4 A18C)	JUN (Homo sapiens, UniProt P05412)	single-molecule FRET	–	–	binding	binds
FANCI (Gallus gallus, UniProt B0I564)	FANCD2 K361E/K369E/R399E/K400E/K404E/R407E/K974E (Gallus gallus, UniProt Q68Y81)	SEC	–	–	binding	binds
gyrB (Bacillus subtilis, UniProt P05652)	gyrA heterodimer 2-821 C350L/T140C/K594C, Alexa488 and Alexa546 labels (Bacillus subtilis, UniProt P05653)	smFRET	–	pH 7.5, 37 °C, KCl 100 mM	binding	binds
CDC6 (Saccharomyces cerevisiae, UniProt P09119)	MCM2/MCM3/MCM4/MCM5/MCM6/MCM7 hexamer (Saccharomyces cerevisiae)	cross-linking	–	–	binding	binds
BACH1 BTB domain C122A, S-nitrosylation treated (Homo sapiens) (sequence not shown)	FBXL17/SKP1 FBXL17 310-701 (Homo sapiens)	BLI	–	apparent	binding	binds
B7 (gp20 N291A/M292A)	GFP/gp17 fusion (bacteriophage T4)	co-sedimentation	–	30 min, NaCl 100 mM, bound relative to gp23	binding	binds
B8 (MYBPC3 C0 domain 1-95 G5R)	MYH7/MYL2 MYH7 806-835	NMR titration	–	–	binding	binds
EDFRSGSEAFDLIAQDEEEFNKEHQ (CEP192 506-530 (Homo sapiens, UniProt Q8TEP8))	AURKA kinase domain 123-403, phosphorylated (Homo sapiens, UniProt O14965)	ITC	–	–	binding	binds
BRD1 fragment E62K/D63K/D64K (Homo sapiens) (sequence not shown)	histone H4 (Bos taurus, UniProt P62803)	pull-down	–	–	binding	binds
B9 (UBTF 670-746)	TBP/TAF1A/TAF1B/TAF1C (Homo sapiens)	pull-down	not purified SL1	with or without phosphatase	binding	binds
B10 (S100A12)	AGER extracellular domain 23-342 N81Q (Homo sapiens, UniProt Q15109)	ELISA	–	added: CaCl2 1 mM	binding	binds

A few entries again:
Substance	tested on	test	system	conditions	measurement	value
EDFRSGSEAFDLIAQDEEEFNKEHQ (CEP192 506-530 (Homo sapiens, UniProt Q8TEP8))	AURKA kinase domain 123-403, phosphorylated (Homo sapiens, UniProt O14965)	ITC	–	–	binding	binds
BRD1 fragment E62K/D63K/D64K (Homo sapiens) (sequence not shown)	histone H4 (Bos taurus, UniProt P62803)	pull-down	–	–	binding	binds
B9 (UBTF 670-746)	TBP/TAF1A/TAF1B/TAF1C (Homo sapiens)	pull-down	not purified SL1	with or without phosphatase	binding	binds
B10 (S100A12)	AGER extracellular domain 23-342 N81Q (Homo sapiens, UniProt Q15109)	ELISA	–	added: CaCl2 1 mM	binding	binds
